Experimental data from different studies.
Each line is one published result; not all experiments were run side by side. ± marks the error that the study gave.
Organism: Staphylococcus aureus

CC(=O)N[C@@H](CCCNC(=N)N)C(=O)N[C@@H](Cc1c[nH]c2ccccc12)C(=O)N[C@@H](CCCNC(=N)N)C(=O)N[C@@H](Cc1c[nH]c2ccccc12)C(=O)N[C@@H](Cc1c[nH]c2ccccc12)C(=O)N[C@@H](CCCCN)C(=O)N[C@@H](Cc1ccccc1)C(=O)N[C@H](C(N)=O)C(C)C
survival (calcein leakage flow cytometry; ATCC 33591; 30 µM, 2 h, 37 °C): 3 ± 1%

C=Cc1cc(OC)c2c(c1)c(=O)oc1c2cc(OC)c2c(O)ccc([C@@H]3O[C@H](C)[C@H](O)[C@@](C)(O)[C@H]3O)c21
bacterial burden decrease (MRSA USA300, mouse epicutaneous infection; 1 mg/kg, day 6): ~1.5 log10 per wound

CCCCCCc1ccc(Oc2ccccc2C#N)c(O)c1
post-antibiotic effect (RN4220; 4 x MIC, 1 h exposure, 37 °C): 1.03 ± 0.17 h

CC[C@H](C)[C@H](NC(=O)[C@H](CCCCN)NC(=O)[C@H](CCCCN)NC(=O)[C@H](CC(C)C)NC(=O)[C@H](CCCCN)NC(=O)[C@H](CCC(=O)O)NC(=O)[C@H](CCCCN)NC(=O)[C@@H](NC(=O)[C@H](CCCCN)NC(=O)[C@H](CC(N)=O)NC(=O)[C@H](CCCNC(=N)N)NC(=O)[C@H](Cc1ccccc1)NC(=O)[C@H](CCCCN)NC(=O)[C@H](CCCNC(=N)N)NC(=O)[C@H](CC(C)C)NC(=O)[C@H](CCCNC(=N)N)NC(=O)[C@H](CCCCN)NC(=O)[C@H](CCCNC(=N)N)NC(=O)[C@@H](N)CC(C)C)[C@@H](C)CC)C(=O)NCC(=O)N[C@@H](CCC(N)=O)C(=O)N[C@@H](CCCCN)C(=O)N[C@H](C(=O)N[C@@H](CCC(N)=O)C(=O)NCC(=O)N[C@@H](Cc1ccccc1)C(=O)N[C@H](C(=O)N1CCC[C@H]1C(=O)N[C@@H](CCCCN)C(=O)N[C@@H](CC(C)C)C(=O)O)C(C)C)[C@@H](C)CC
lethal concentration (inhibition zone; penicillin-resistant P1383): 1.35 µM

CN1CC(=O)N=C1N.C[C@H](CCC(=O)O)[C@H]1CC[C@H]2[C@@H]3[C@H](O)C[C@@H]4C[C@H](O)CC[C@]4(C)[C@H]3CC[C@]12C
inhibition zone diameter (TISTR 746; 1 mg per disc, 18 to 24 h, 37 °C, 6 mm disc): 9.5 ± 0.5 mm

NCCCC[C@H](NC(=O)[C@H](CCCCN)NC(=O)[C@H](Cc1ccccc1)NC(=O)[C@@H]1CCCN1C(=O)[C@H](Cc1c[nH]c2ccccc12)NC(=O)[C@H](Cc1c[nH]c2ccccc12)NC(=O)[C@H](Cc1c[nH]c2ccccc12)NC(=O)[C@@H]1CCCN1C(=O)[C@H](Cc1ccccc1)NC(=O)[C@H](CCCCN)NC(=O)[C@@H](N)CCCCN)C(N)=O
LC99.9 (MSSA RN 4220, RPMI medium; 24 h, 37 °C): 30 µM

C[C@@H](c1ccccc1)N(CC(N)=O)C(=O)CN(C(=O)CN(CCCCN)C(=O)CN(C(=O)CN(C(=O)CN(CCCCN)C(=O)CN(C(=O)CN(C(=O)CN(CCCCN)C(=O)CN(C(=O)CN(C(=O)CNCCCCN)[C@@H](C)c1ccccc1)[C@@H](C)c1ccccc1)[C@@H](C)c1ccccc1)[C@@H](C)c1ccccc1)[C@@H](C)c1ccccc1)[C@@H](C)c1ccccc1)[C@@H](C)c1ccccc1
abscess size (USA300 LAC, mouse, abscess model; maximum tolerated dose, 1 h post infection): 4.6 mm²

S=C(NCc1ccccn1)NCc1ccccn1
inhibition zone (microbial growth, well diffusion; 10 µg/mL): 12 mm

CC(=O)N[C@H]1CNC(=O)[C@H](Cc2ccccc2)NC(=O)[C@H](Cc2ccccc2)NC(=O)COCCOCCNC1=O
AgrC activity (reporter gene; AH1872; 10 µM; baseline: DMSO): inactive

Excerpt of the above:
CCCCCCc1ccc(Oc2ccccc2C#N)c(O)c1
post-antibiotic effect (RN4220; 4 x MIC, 1 h exposure, 37 °C): 1.03 ± 0.17 h
